# Published values from different studies.
# Lines come from different studies, so protocols differ.
SMILES,organism,assay,test system,setting,MIC
Cc1c(CN(C)C(=O)/C=C/c2cnc3c(c2)CC(N)C(=O)N3)oc2ccccc12 (stereo not shown),Escherichia coli,,MG1655 FabI A116V resistant,,64 µg/mL
CC(C)C[C@H](NC(=O)[C@H](CC(C)C)NC(=O)[C@H](CCCCN)NC(=O)CNC(=O)[C@H](CC(C)C)NC(=O)CNC(=O)[C@H](CO)NC(=O)[C@H](CC(C)C)NC(=O)[C@H](CC(C)C)NC(=O)[C@H](CO)NC(=O)[C@H](CCCCN)NC(=O)[C@H](CC(C)C)NC(=O)[C@H](CCCCN)NC(=O)[C@H](CCCCN)NC(=O)[C@H](CC(C)C)NC(=O)[C@H](CC(C)C)NC(=O)[C@H](CC(C)C)NC(=O)CNC(=O)[C@H](CO)NC(=O)[C@H](Cc1c[nH]c2ccccc12)NC(=O)[C@@H](N)CCCCN)C(=O)O,Candida glabrata,broth microdilution,ATCC 2001,"44 h, 37 °C",> 100 µM
CCCCCCCC(=O)NCCCC[C@H](NC(=O)CCCCCCC)C(=O)N[C@@H](CCCCNC(=O)CCCCCCC)C(=O)NCC(=O)NCC(=O)NCC(=O)N[C@@H](CS)C(=O)N[C@@H](CCCNC(=N)N)C(=O)N[C@@H](CCCCN)C(=O)N1CCC[C@H]1C(=O)N[C@@H](CS)C(=O)N[C@@H](CCCNC(=N)N)C(=O)N[C@@H](CCCCN)C(=O)N1CCC[C@H]1C(=O)N[C@@H](CS)C(=O)N[C@@H](CCCNC(=N)N)C(=O)N[C@@H](CCCCN)C(=O)N1CCC[C@H]1C(=O)N[C@@H](CS)C(=O)N[C@@H](CCCNC(=N)N)C(=O)N[C@@H](CCCCN)C(=O)N1CCC[C@H]1C(N)=O,Candida albicans,broth microdilution,"56452, RPMI-1640","48 h, 30 °C",16 µM
CSCC[C@H](NC=O)C(=O)N[C@@H](CCCNC(=N)N)C(=O)N[C@H](C(=O)NCC(=O)N[C@@H](CC(N)=O)C(=O)N[C@@H](C)C(=O)N[C@@H](CC(N)=O)C(=O)NCC(=O)N1CCN(c2cc3c(cc2F)c(=O)c(C(=O)O)cn3C2CC2)CC1)[C@@H](C)O,Salmonella enterica serovar Typhimurium,broth dilution,SL1344,,8 µM
CCCCCCCC(=O)NCCCC[C@H](NC(=O)CCCCCCC)C(=O)N[C@@H](CCCCNC(=O)CCCCCCC)C(=O)NCC(=O)NCC(=O)NCC(=O)N[C@@H](CS)C(=O)N[C@@H](CCCNC(=N)N)C(=O)N[C@@H](CCCCN)C(=O)N1CCC[C@H]1C(=O)N[C@@H](CS)C(=O)N[C@@H](CCCNC(=N)N)C(=O)N[C@@H](CCCCN)C(=O)N1CCC[C@H]1C(N)=O,Candida albicans,broth microdilution,"SP 3903, RPMI-1640","48 h, 30 °C",8 µM
CC(=O)N[C@@H](CC(C)C)C(=O)N[C@H]1CSSC[C@@H](C(=O)N2CCC[C@H]2C(N)=O)NC(=O)[C@H]([C@@H](C)O)NC(=O)[C@H](C(C)C)NC(=O)[C@H]([C@@H](C)O)NC(=O)CNC(=O)[C@H](CCCCN)NC(=O)[C@H](Cc2ccccc2)NC(=O)[C@H](Cc2ccc(O)cc2)NC(=O)[C@H](CCCCN)NC(=O)[C@H](CCC(=O)O)NC(=O)[C@H](Cc2ccccc2)NC(=O)[C@H](CCCNC(=N)N)NC(=O)[C@H](CCCCN)NC(=O)[C@H](CC(C)C)NC(=O)[C@H](CC(=O)O)NC(=O)[C@@H]2CCCN2C(=O)[C@H](CCCCN)NC(=O)[C@H](C(C)C)NC(=O)[C@H](CCCCN)NC(=O)[C@H](CCCCN)NC(=O)[C@H]([C@@H](C)O)NC1=O,Aeromonas hydrophila,broth dilution,,24 h,> 40 µM
CCCCCCCC(=O)NCCCC[C@H](NC(=O)CCCCCCC)C(=O)N[C@@H](CCCCNC(=O)CCCCCCC)C(=O)NCC(=O)NCC(=O)NCC(=O)N[C@@H](CS)C(=O)N[C@@H](CCCNC(=N)N)C(=O)N[C@@H](CCCCN)C(=O)N1CCC[C@H]1C(N)=O,Candida albicans,broth microdilution,"56452, RPMI-1640","48 h, 30 °C",> 128 µM
CC[C@H](C)[C@H](N)C(=O)N[C@@H](CCCNC(=N)N)C(=O)N[C@H](C(=O)N[C@@H](Cc1c[nH]c2ccccc12)C(=O)N[C@@H](Cc1ccccc1)C(=O)N[C@H](C(=O)N[C@@H](CCCCN)C(=O)N[C@H](C(=O)N[C@@H](CCCNC(=N)N)C(=O)N[C@@H](CCCCN)C(=O)N[C@@H](CCSC)C(=O)N[C@@H](CCCCN)C(=O)N[C@@H](C)C(=O)N[C@H](C(=O)N[C@@H](Cc1ccc(O)cc1)C(=O)N[C@@H](Cc1c[nH]cn1)C(=O)N[C@H](C(N)=O)[C@@H](C)O)[C@@H](C)CC)C(C)C)[C@@H](C)CC)C(C)C,Listeria monocytogenes,broth dilution,KCTC 13064,,50 µM
[O-][N+]1=C(c2ccccc2)C2=NCCN2c2ccccc21,Fusobacterium nucleatum,,,,0.06 to 0.125 µg/mL
c1ccc(CCNC2CCCc3c2[nH]c2ccc(C4CCCCC4)cc32)cc1 (stereo not shown),Micrococcus luteus,broth microdilution,DSM 1790,,1 µg/mL
CN[C@H](CC(C)C)C(=O)N[C@H]1C(=O)N[C@@H](CC(N)=O)C(=O)N[C@H]2C(=O)N[C@H]3C(=O)N[C@H](C(=O)N[C@H](C(=O)N[C@@H](CCCNC(=N)N)C(N)=O)c4cc(O)cc(O)c4-c4cc3ccc4O)[C@H](O)c3ccc(c(Cl)c3)Oc3cc2cc(c3O[C@@H]2O[C@H](CO)[C@@H](O)[C@H](O)[C@H]2O[C@H]2C[C@](C)(NCc3ccc(OCc4cn(CC(=O)N[C@H](C(=O)N[C@@H](CCN)C(=O)N[C@H]5CCNC(=O)[C@H]([C@@H](C)O)NC(=O)[C@H](CCN)NC(=O)[C@H](CCN)NC(=O)[C@H](CC(C)C)NC(=O)[C@@H](CC(C)C)NC(=O)[C@H](CCN)NC5=O)[C@@H](C)O)nn4)c(OC)c3)[C@H](O)[C@H](C)O2)Oc2ccc(cc2Cl)[C@H]1O,Staphylococcus simulans,broth microdilution,"22, cation-adjusted Mueller-Hinton broth",,≤ 0.003 µM
CCCCCCCC(=O)NCCCC[C@H](NC(=O)CCCCCCC)C(=O)N[C@@H](CCCCNC(=O)CCCCCCC)C(=O)NCC(=O)NCC(=O)NCC(=O)N[C@@H](CS)C(=O)N[C@@H](CCCNC(=N)N)C(=O)N[C@@H](CCCCN)C(=O)N1CCC[C@H]1C(=O)N[C@@H](CS)C(=O)N[C@@H](CCCNC(=N)N)C(=O)N[C@@H](CCCCN)C(=O)N1CCC[C@H]1C(=O)N[C@@H](CS)C(=O)N[C@@H](CCCNC(=N)N)C(=O)N[C@@H](CCCCN)C(=O)N1CCC[C@H]1C(N)=O,Candida albicans,broth microdilution,"SP 3931, RPMI-1640","48 h, 30 °C",16 µM
CC(C)CCCCCCCCC/C=C/C(=O)N[C@@H](CC(=O)O)C(=O)N[C@H]1CNC(=O)[C@@H]2CCCN2C(=O)[C@H](C(C)C)NC(=O)[C@@H](CN)NC(=O)CNC(=O)[C@H](CC(=O)O)NC(=O)CNC(=O)[C@H](CC(=O)O)NC(=O)[C@H](CC(=O)O)NC(=O)[C@H]2CCCCN2C1=O,Staphylococcus aureus,broth microdilution,"MRSA USA300, Mueller-Hinton broth, Mg2+ 10 mg/L","16 h, 37 °C, with: Ca2+ 10 mM",1 µg/mL

# Excerpt of the above:
SMILES,organism,assay,test system,setting,MIC
CCCCCCCC(=O)NCCCC[C@H](NC(=O)CCCCCCC)C(=O)N[C@@H](CCCCNC(=O)CCCCCCC)C(=O)NCC(=O)NCC(=O)NCC(=O)N[C@@H](CS)C(=O)N[C@@H](CCCNC(=N)N)C(=O)N[C@@H](CCCCN)C(=O)N1CCC[C@H]1C(N)=O,Candida albicans,broth microdilution,"56452, RPMI-1640","48 h, 30 °C",> 128 µM
CC(C)C[C@H](NC(=O)[C@H](CC(C)C)NC(=O)[C@H](CCCCN)NC(=O)CNC(=O)[C@H](CC(C)C)NC(=O)CNC(=O)[C@H](CO)NC(=O)[C@H](CC(C)C)NC(=O)[C@H](CC(C)C)NC(=O)[C@H](CO)NC(=O)[C@H](CCCCN)NC(=O)[C@H](CC(C)C)NC(=O)[C@H](CCCCN)NC(=O)[C@H](CCCCN)NC(=O)[C@H](CC(C)C)NC(=O)[C@H](CC(C)C)NC(=O)[C@H](CC(C)C)NC(=O)CNC(=O)[C@H](CO)NC(=O)[C@H](Cc1c[nH]c2ccccc12)NC(=O)[C@@H](N)CCCCN)C(=O)O,Candida glabrata,broth microdilution,ATCC 2001,"44 h, 37 °C",> 100 µM
